Published values gathered from unrelated publications.
Each numbered part is a random draw from the data of one study; scales do not carry over between parts.

Sample 1
Target: PABPC1L2, full length, GST fusion (mouse, UniProt A0ABA7IW68)
Technique: RNAcompete
Form: RNA
Medium: in vitro
Concentration: 20 nM
Setting: 7-mer, probes averaged, single round
Baseline: mean of 7-mers
Direction: higher = stronger binding
Construct (chain): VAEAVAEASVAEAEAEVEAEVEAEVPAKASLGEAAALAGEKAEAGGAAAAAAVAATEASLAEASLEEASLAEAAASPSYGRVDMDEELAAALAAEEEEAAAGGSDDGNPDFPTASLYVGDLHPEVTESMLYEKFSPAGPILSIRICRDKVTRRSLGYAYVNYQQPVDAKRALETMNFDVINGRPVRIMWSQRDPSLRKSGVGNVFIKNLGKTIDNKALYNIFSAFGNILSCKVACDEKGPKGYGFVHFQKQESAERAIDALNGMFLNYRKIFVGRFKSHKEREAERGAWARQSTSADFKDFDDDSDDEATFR
With `GCCCUAC` the 7-mer Z-score was -0.306.
For `GAGAGGG`, the 7-mer Z-score was 0.356.
`CACAUCC` gave a 7-mer Z-score of -0.211.
The 7-mer Z-score of `UUCUGAU` is reported as -0.432.
For `AUGACAC`, the 7-mer Z-score was -0.05.
`AACGCUC` gave a 7-mer Z-score of -0.00289.
The 7-mer Z-score of `UAUUCUA` is reported as -0.251.
The 7-mer Z-score of `CGCCCAG` is reported as -0.405.
`CGUAGCC` gave a 7-mer Z-score of -0.24.
For `CCUAUUU`, the 7-mer Z-score was -0.322.
For `AAAACAG`, the 7-mer Z-score was 8.77.
For `GUGUGUC`, the 7-mer Z-score was -0.26.
For `AAUGUCA`, the 7-mer Z-score was 0.0116.
`GAGUACA` has a 7-mer Z-score of -0.0518.
`CACCGUA` has a 7-mer Z-score of -0.233.
The 7-mer Z-score of `GGAACGC` is reported as -0.0627.
The 7-mer Z-score of `AUUUGAA` is reported as -0.206.
The 7-mer Z-score of `AGACAUA` is reported as 0.0424.

Sample 2
Target: POU domain, class 5, transcription factor 1, POU domain (Pou5f1, Mus musculus, UniProt P20263, residues 131-289)
Sequence of UniProt P20263 (131-289, looked up): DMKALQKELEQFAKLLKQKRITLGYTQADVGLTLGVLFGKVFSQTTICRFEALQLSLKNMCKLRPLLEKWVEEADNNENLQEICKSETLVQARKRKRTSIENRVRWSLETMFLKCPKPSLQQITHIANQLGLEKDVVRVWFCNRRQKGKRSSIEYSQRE
Technique: Spec-seq
Form: double-stranded DNA, one strand shown
Medium: in vitro
Concentration: not given
Setting: whole probe, mean of replicates
Baseline: not given
Direction: lower = stronger binding
All sequences stand within: GAGTCGTCTCGTCAGCAC … CCGTAGAGCACTCAGGTC
`TTCCTAAT`: “relative binding energy” 0.572 ln ratio.
`ATGCGACT` — result for “relative binding energy”: 0.237 ln ratio.
Under “relative binding energy”, `ATGAATAT` is recorded as -2.24 ln ratio.
`ATGCAGCG` — result for “relative binding energy”: 0.358 ln ratio.
Under “relative binding energy”, `ATGTAGAT` is recorded as -1.14 ln ratio.
`ATCAATAT`: “relative binding energy” -0.44 ln ratio.
For `ATGGATAT`, “relative binding energy” read -0.302 ln ratio.
Under “relative binding energy”, `CTGATAAT` is recorded as 0.733 ln ratio.
`ATGCTCGG`: “relative binding energy” 0.79 ln ratio.
`GAATTAAT`: “relative binding energy” -0.445 ln ratio.
Under “relative binding energy”, `GATGTAAT` is recorded as 0.168 ln ratio.
Under “relative binding energy”, `ATAACAAT` is recorded as 0.317 ln ratio.
`ATATGTAT`: “relative binding energy” -0.686 ln ratio.
Under “relative binding energy”, `TGTTTAAT` is recorded as 0.444 ln ratio.
`ATTATGAT`: “relative binding energy” 0.209 ln ratio.

Sample 3
Target: RING finger protein unkempt homolog, zinc fingers 1-6, GST-SBP tag (UNK, Homo sapiens, UniProt Q9C0B0, residues 30-357)
Technique: RNA Bind-n-Seq
Form: RNA
Medium: in vitro
Concentration: not given
Setting: RNA with constant flanks, human and mouse sites, ends assumed
Baseline: input RNA pool
Direction: higher = stronger binding
All sequences stand within: GGGAGUUCUACAGUCCGACGAUC … CAACAGAGGAUUGAGCAUCA
Residues (chain): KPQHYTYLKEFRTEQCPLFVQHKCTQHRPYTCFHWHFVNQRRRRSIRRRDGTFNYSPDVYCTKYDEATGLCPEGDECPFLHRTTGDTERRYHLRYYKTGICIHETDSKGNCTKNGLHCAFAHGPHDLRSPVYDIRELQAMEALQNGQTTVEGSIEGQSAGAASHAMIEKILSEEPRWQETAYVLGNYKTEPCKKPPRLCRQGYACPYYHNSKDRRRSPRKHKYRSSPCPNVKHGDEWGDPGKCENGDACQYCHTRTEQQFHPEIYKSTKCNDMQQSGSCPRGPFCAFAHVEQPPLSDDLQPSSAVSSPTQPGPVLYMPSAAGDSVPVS
`GAUGUCAGGACCAUUCUGCUCUCCAUCCAGAGCCUUCUAGGAGAACCCAACAUUGAUAGUCCCUUGAACACACAUGCUGCCGAGCUCUGGAAAAACCCCACAGCUUUUAAGAAGUACCUG` has a bound/input enrichment of 0.223 ratio.
`CUGAGCAAGAUGUACCCGCAGACCAGACACCCAGCACCGCAUCAGCCUGCUCAACCCUUUAAAUUUACAAUUUCCGAAUCCUGUGAUCGGAUUAAGGAAGAGUUUCAGUUUUUACAGGCU` has a bound/input enrichment of 0.353 ratio.
`CUGAUUCACAGGGACAUUAAAGCAGGGAACAUCCUCCUCACAGAGCCAGGUCAGGUGAAGCUGGCUGACUUCGGAUCUGCCUCCAUGGCUUCUCCCGCCAACUCCUUUGUGGGGACUCCU` has a bound/input enrichment of 0.0583 ratio.
For `UUAAUCUCAACUAAAGAUAUAGUUCUGUGGUAGCCAUUGUUUUACAAUGAAAUAACUGCAACUAGAGAAAAAAAACUGUAUAAAAACAUUAAAUUGUCAGUAUUUUUGUAAGAUUCCGUU`, the bound/input enrichment was 0.278 ratio.
`UUAGGUUGGAUGCAUCACACUGUAGAUCUCCUGGGAGAUAAAGCCACCAAGGAAAGCUAUGCUAUUCAGUAUCUCCAAAAGUCCUUGGAAGCAGAUCCUAAUUCUGGCCAGUCCUGGUAU` gave a bound/input enrichment of 0.153 ratio.
For `CCUCAUGAGGUUCAGAAGCUGCAAUGUCCCAAGAUAAAGACUGUGGAUAUCAGUUUGAUUCUUUCUGAAGCCAUUCGGAGAAUCCACAAUGGAGAGUCCAUGGCCUACCUUUUCCGAAAC`, the bound/input enrichment was 0.0835 ratio.
The bound/input enrichment of `UUGGUGAAGUGUUUCACAUUGAUCAUCCAGAGUCUACAACGUGGUGAUAUACAGCCAUGGCUCCAUAGUGGAAGUAACAGUUUACUAAGUAAGCUCAUUCAUCAGUCUUAUCAUGGAACC` is reported as 0.242 ratio.
The bound/input enrichment of `CACACCCUCUUCUGUGGCACCCUCAUUCUGCAGGCCCGAGCCUACGUGGGACCCCGUGUGCUAGCAGUGGUGACUCGGACAGGGUUCUGCACAGCCAAAGGGGGCCUGGUGAGCUCCAUC` is reported as 0.0736 ratio.

Sample 4
Target: RNA binding protein fox-1 homolog 2, RRM domain, GST-SBP tag (RBFOX2, Homo sapiens, UniProt O43251-10, residues 100-194)
Technique: RNA Bind-n-Seq
Form: RNA
Medium: in vitro
Concentration: 365 nM
Setting: natural RNA segment, single round, ends assumed
Baseline: no-protein control
Direction: higher = stronger binding
All sequences stand within: GGGAGUUCUACAGUCCGACGAUC … UGGAAUUCUCGGGUGCCAA
Target sequence (chain): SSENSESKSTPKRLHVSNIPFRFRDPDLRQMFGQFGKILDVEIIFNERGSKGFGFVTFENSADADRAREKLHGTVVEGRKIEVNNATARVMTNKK
Under “RBNS enrichment (R)”, `CUUACUGAGGCGCUGAAGAGGCUCCCCCCACCCCCUUGAGGGUCAGUUUGUUAUUUCUCAAGUAUACAGCACCGAGGUCAGUCAGUUGUCACUCCCUGAUGACGUGUAGC` is recorded as 0.355.
`GAGAAGGUAAUGCUAGAGGAAGACUCAGUCACACAGAUAACAGGCAUUGGAAACAGCCGCACUAUGGCUUCUUUGAGACCCUAUUUCCUUUUCUGGUUGUGGACAAGGCU`: “RBNS enrichment (R)” 0.675.
`AAUUGGCAGGCUUUAGCCUACAAAUGGGUCCCCCAAGUUUUCUAGAUAACAUCCUGCUCUCUGCAGGUUGCGGCAGUGUGGGUUUGGCUCCAGUCCUUCCCAUUAUACUU`: “RBNS enrichment (R)” 0.247.
`UUCUUGCGUCUCCCUGUGAUGGGCCCUUAGGCCUGGCUGGGCCCAUUACAUAUCCCUGUGGUGGCUCUGGUGGCAGCUUUCUGUGGCCCCUGCUGUGUUGGCAGGCAGGU` — result for “RBNS enrichment (R)”: 0.54.
`GUAACUCCACACCCAGGAGGGUAAGCCACUUUAUUAUCAUGCUUUGGGGCUGUGCUUAAGAAUUUAAGCUCUGUUUUAAAGCCGAAGAAGAAAACAUUUGAAUUUACCUU`: “RBNS enrichment (R)” 0.213.
`GCAUUUCUGUUCACUAACCCCACUCCAGGACACUGCCCCUGAAGCCUUUGCAUCUCUGCUCUUCACUCCUGGGGGGCAGCUGAGCUCCCCGCGUGCUGUGUCACUGCUUU`: “RBNS enrichment (R)” 1.59.
`GAAAGGAACCCCUUUGAGAGGUCGCGAGGCCCAUCUUUACUAGGACCCUUCCAUCUCUCCUGGGACAGGCAGGAACCAGAGGGACCAGGGCUCAAAUCUUGUACUAUGUG`: “RBNS enrichment (R)” 0.638.
For `UACCAUUUUGAUUAGUCUGAAUGUUUUCAGGCCUUGAAAUAAAUUUUGACUAAGUGAUAUUUUUUCUUCCCUGUGUCAGCUUGAAUCUUACUUUAUGUAUUUCGAAUUUG`, “RBNS enrichment (R)” read 0.452.

Sample 5
Target: Histone acetyltransferase KAT6A, winged helix 1, GST fusion (KAT6A, Homo sapiens, UniProt Q92794, residues 1-85)
Technique: protein binding microarray
Form: double-stranded DNA, one strand shown
Medium: in vitro
Concentration: not given
Setting: 8-mer, flanks averaged, mean of 2 arrays, mostly near background
Baseline: not given
Direction: higher = stronger binding
Construct (chain): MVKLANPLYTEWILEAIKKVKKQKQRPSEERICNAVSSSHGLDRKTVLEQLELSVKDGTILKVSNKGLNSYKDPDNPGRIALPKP
`AACACCTA` gave an E-score of -0.0425.
For `CCCCTCCC`, the E-score was 0.0465.
`AACGCGGA` has an E-score of 0.266.
`CCACGTCA` gave an E-score of -0.121.
With `CGTCAATC` the E-score was 0.0733.
The E-score of `GTGCTCAA` is reported as -0.124.
For `AACTCCAC`, the E-score was -0.121.
With `ATGTCGCG` the E-score was 0.284.
With `CTATGAAC` the E-score was 0.0146.
`CATCGGCC` has an E-score of 0.27.
For `AGGTTAAT`, the E-score was -0.146.
With `GATTGACC` the E-score was 0.0199.
`ATCCCAAC` gave an E-score of -0.15.
`GGCAAAAC` has an E-score of 0.0106.
With `AACCGGCT` the E-score was 0.215.
The E-score of `ACGTTAAC` is reported as -0.0595.
`GTGGGATA` gave an E-score of -0.0832.
`CACGGGTA` has an E-score of 0.287.

For quick reference, copied from above (sample 2):
Under “relative binding energy”, `GATGTAAT` is recorded as 0.168 ln ratio.
`ATCAATAT`: “relative binding energy” -0.44 ln ratio.
Under “relative binding energy”, `ATAACAAT` is recorded as 0.317 ln ratio.
`TTCCTAAT`: “relative binding energy” 0.572 ln ratio.
Under “relative binding energy”, `ATGAATAT` is recorded as -2.24 ln ratio.
Under “relative binding energy”, `ATGTAGAT` is recorded as -1.14 ln ratio.
`ATATGTAT`: “relative binding energy” -0.686 ln ratio.
`GAATTAAT`: “relative binding energy” -0.445 ln ratio.
